Measured values gathered from unrelated publications.
Parts stem from different laboratories: compare values within a part only.

Block 1
Target: Histone acetyltransferase KAT6A, winged helix 1, GST fusion (KAT6A, Homo sapiens, UniProt Q92794, residues 1-85)
Method: protein binding microarray
Molecule type: double-stranded DNA, one strand shown
Matrix: in vitro
Concentration: not given
Notes: 8-mer, flanks averaged, mean of 2 arrays, mostly near background
Relative to: not given
Reading: higher = stronger binding
Target sequence (chain): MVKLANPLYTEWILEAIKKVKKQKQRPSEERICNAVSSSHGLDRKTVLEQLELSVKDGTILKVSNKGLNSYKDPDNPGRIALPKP
Sequence	E-score
ATGCGTTG	-0.00332
ATCTATGA	-0.151
CAGCGTCC	0.111
CCTGAGTA	-0.0992
CCCACACG	0.0665
GAACGCTC	0.107
CGTATAAA	0.149
ATCCGTGC	0.239

Block 2
Cell line: HEK-293T/ACE2
Concentration: concentration not given
Time: 16 (unit not given)
Relative to: vehicle
Structure (SMILES)	viability
Cc1ccc(Cl)c(Nc2ccccc2C(=O)O)c1Cl	99.9%
CCCCC1=NC2(CCCC2)C(=O)N1Cc1ccc(-c2ccccc2-c2nnn[nH]2)cc1	103%
C#C[C@]1(O)CC[C@H]2[C@@H]3CCC4=C(CCC(=O)C4)[C@H]3CC[C@@]21C	104%

Block 3
Target: Interferon regulatory factor 7, full length, phosphomimetic (IRF7, Homo sapiens, UniProt Q92985, residues 1-503, S101K/S471D/S472D/S475D/S476D/S477D/S483D/S484D/S487D)
Method: protein-binding microarray
Molecule type: double-stranded DNA, one strand shown
Matrix: in vitro
Concentration: 250 nM
Notes: 60-bp whole probe
With: salmon DNA 0.4 mg/ml
Relative to: random background probes
Reading: higher = stronger binding
Constant ends, left off below: GCCTAGCAC … GTCTTGATTCGCTTGACGCTGCTG
Residues (chain): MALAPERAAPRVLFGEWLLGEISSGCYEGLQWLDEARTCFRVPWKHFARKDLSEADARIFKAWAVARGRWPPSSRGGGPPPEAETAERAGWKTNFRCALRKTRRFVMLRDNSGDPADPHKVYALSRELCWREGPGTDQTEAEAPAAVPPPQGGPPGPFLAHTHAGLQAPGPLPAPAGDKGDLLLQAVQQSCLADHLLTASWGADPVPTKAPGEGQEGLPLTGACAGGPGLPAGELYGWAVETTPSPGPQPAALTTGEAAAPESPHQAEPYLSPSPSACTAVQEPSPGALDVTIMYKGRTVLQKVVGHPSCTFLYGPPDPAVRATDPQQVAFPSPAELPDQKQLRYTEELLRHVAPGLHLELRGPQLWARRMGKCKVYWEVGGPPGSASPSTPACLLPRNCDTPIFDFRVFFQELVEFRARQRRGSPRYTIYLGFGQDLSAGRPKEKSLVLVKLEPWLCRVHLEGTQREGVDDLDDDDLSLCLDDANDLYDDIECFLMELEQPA
Sequence	log fluorescence [z-score]
TTAGATTTCAGTTCCTATTAGTGCTAG	2.01
TTAGGTTTCCTTTTCCATTAGTGCTAG	6.76
TTAGGGATCCTTATCCTTTAGTGCTAG	-0.223
CTTTATGTACTCTCTCCATGTGTGCTA	0.659
GACGGTTTCCTACTGCTGTCGTGCTAG	1.85
GACGGGTTCCTACTGCTGACGTGCTAG	0.157
TCATGTCTGGGCATTTTTACTGTGCTA	-0.805
GACGATTTGAGTTCCGAGACGTGCTAG	0.269

Block 4
Target: RNA binding protein fox-1 homolog 2, RRM domain, GST-SBP tag (RBFOX2, Homo sapiens, UniProt O43251-10, residues 100-194)
Method: RNA Bind-n-Seq
Molecule type: RNA
Matrix: in vitro
Concentration: 365 nM
Notes: natural RNA segment, single round, ends assumed
Relative to: no-protein control
Reading: higher = stronger binding
Constant ends, left off below: GGGAGUUCUACAGUCCGACGAUC … UGGAAUUCUCGGGUGCCAA
Residues (chain): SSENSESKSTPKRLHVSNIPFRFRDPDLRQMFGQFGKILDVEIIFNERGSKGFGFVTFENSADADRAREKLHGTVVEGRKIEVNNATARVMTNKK
Sequence	RBNS enrichment (R)
UCUCUUAAUGUUGCCAAUAGAAGGCUUGAGCAGGAAGCUUGUAGCACUGAUCUAAUUGUGUGUACAACCAUCAACUUAAAUUUAUAAAAUGGCCUUUUUCUUGGCGUCUA	0.32
GCAAGGUUGCUGGAGGGGGCCCUGGCCCCAGGGAGGAGGGACACGGGGAGGAACUUCUGGGGCUCCUGCUGGGGCCACUUCCUGGGCUGCUCCCUCGGGCCUGUAGGGGG	0.553
GGUGGCUGUCUUGGAACUGGGAGACAGGUCCUCAGAGGUGCACUCAGGCAACAGGACAGCCAUCUCUCUGCUUCAGCCCUCUGCCUACAGGGAUUAGGGAAAUGGAGCUC	0.286
UUACAUGUAAAUACUUGUAUUUACCAAAGAUUUAAAUCAGUUGAUUAAUUAAUUAACUCAAAUACUGUGAACUAUCUCUAAAACACUAGAAAAAAGAAAUGUUAGUAUCU	0.388
UACAACACCUAAUAUACACUAACAGCAGUAAGACUAAGCCAGGCAGUCUUAAAAAAUUCUAUCAGAUGUGUCAUGAGACUGUUUCAGACUCAUGUCUGCUUAAAAUUCAC	0.578
ACACAAAGUACUUGAUUUCCUGUGUCGGCUCAGAUACAAGAAACACACACAACUGUUACCCUGACAGAGAACAGAGAGAGAAGAUCCAAGAUAAGAAAACUGCAUGUGGA	15
UUCCAAGCUGGGCAAGGUACAUUUAAUCAGUAAAUCAGUUUCACAUCAUGUAUUGUGAUGUUUCAAUGUGAGACACAAAAACAAUGGCUUGAAACUUGUGUAUCAUAUGU	0.81
AGCUGGCCUCUCUCAUCUCUCAGAUCAUGUCUAUCUCAGGGGCCACAAUAAGAAACAUACUCUCCAUAGUGCCAAGGCUACACAGAAACCCUGCCUCAAAAAAACAAGCA	0.662

Block 5
Target: Replicase polyprotein 1ab, main protease (rep, Severe acute respiratory syndrome coronavirus 2, UniProt P0DTD1)
Read-out: enzyme activity
Mode: inhibitor
Concentration: 20 µM
Notes: primary screen
Structure (SMILES)	inhibition [%]
CN1CCN(C(=O)c2ccc(-c3ccc4c(C=O)c(O)ccc4c3)s2)CC1	45.5
O=C1/C(=C/c2ccccc2)C(NC2CCCCC2)c2ccccc21 (centres unmarked)	36.8
CC1=C(C(=O)O)N2C(=O)[C@@H](NC(=O)[C@H](N)C3=CCC=CC3)C2SC1 (some centres unmarked)	25.4
N=C(N)S/C=C\C(=O)O	27.6

Block 6
Target: Replicase polyprotein 1ab, polymerase (rep, Severe acute respiratory syndrome coronavirus 2, UniProt P0DTD1)
Read-out: enzyme activity
Mode: inhibitor
Concentration: 20 µM
SMILES	inhibition
O=C(c1cc(C2CC2)on1)N(C1CCCCC1)C1CCCCC1	-9.13%
CC(C)CN(C[C@@H](OP(=O)(O)O)[C@H](Cc1ccccc1)NC(=O)O[C@H]1CCOC1)S(=O)(=O)c1ccc(N)cc1	1.86%
CC(C)N1CCN(c2ccc(OC[C@H]3CO[C@](Cn4cncn4)(c4ccc(Cl)cc4Cl)O3)cc2)CC1 (racemic)	-8.02%
Cc1cc(OCC(=O)O)cc(C)c1Cc1ccc(O)c(C(C)C)c1	-2.37%
Cn1c(=O)c2c(ncn2CC(=O)O)n(C)c1=O	-7.23%
NC[C@H]1O[C@H](O[C@H]2[C@H](O)[C@@H](O[C@H]3O[C@H](CO)[C@@H](O)[C@H](N)[C@H]3O)[C@H](N)C[C@@H]2N)[C@H](N)[C@@H](O)[C@@H]1O	-8.51%
CCCCCCCCCC(=O)OCCN1CCN(CCCN2c3ccccc3Sc3ccc(C(F)(F)F)cc32)CC1	-4.94%
C=CCc1ccc(O)c(-c2ccc(O)c(CC=C)c2)c1	2.24%
CN1CCN(c2ccc(OC(F)(F)F)c(Nc3ncc4c(n3)-c3c(c(C(N)=O)nn3CCO)CC4)c2)CC1	-8.04%
CCOC(=O)C1=C[C@]2(CC)CCCN3CCc4c(n1c1ccccc41)[C@@H]32	-7.36%
Nc1ncnc2c1nc(Br)n2[C@@H]1O[C@@H]2COP(=O)(O)O[C@H]2[C@H]1O	-5.91%
Fc1ccc(C(c2ccccc2)(c2ccccc2F)n2ccnc2)cc1 (centres unmarked)	-7.12%
Cn1ncnc1[C@H]1c2n[nH]c(=O)c3cc(F)cc(c23)N[C@@H]1c1ccc(F)cc1	-5.72%
C=C1CC[C@@]2(O)[C@H]3Cc4ccc(O)c5c4[C@@]2(CCN3CC2CC2)[C@H]1O5	-5.59%
O=C(O)C1=CCCN(CCOC(c2ccc(C(F)(F)F)cc2)c2ccc(C(F)(F)F)cc2)C1	-13.7%
NP(N)(=O)NC(=O)c1ccc(F)cc1	-7.29%
CCn1c(=O)[nH]c2ccccc21	-0.31%
CC(C)(C)NCC(O)c1ccc(O)cc1Cl (centres unmarked)	-8.53%
Oc1ccc2ccccc2c1SSc1c(O)ccc2ccccc12	3.12%
CCCC[C@H](NC(C)=O)C(=O)N[C@H]1CC(=O)NCCCC[C@@H](C(=O)O)NC(=O)[C@H](Cc2c[nH]c3ccccc23)NC(=O)[C@H](CCCNC(=N)N)NC(=O)[C@@H](Cc2ccccc2)NC(=O)[C@H](Cc2c[nH]cn2)NC1=O	3.06%
CNC(=O)c1c(-c2ccc(F)cc2)oc2cc(N(CCO)S(C)(=O)=O)c(C3CC3)cc12	-1.7%
COC(=O)N[C@H](C(=O)N1CCC[C@H]1c1ncc(-c2ccc(-c3ccc(-c4cnc([C@@H]5CCCN5C(=O)[C@@H](NC(=O)OC)C(C)C)[nH]4)cc3)cc2)[nH]1)C(C)C	1.29%
CC(SC(=O)c1cccs1)C(=O)NCC(=O)O (centres unmarked)	-2.96%
OC[C@H]1O[C@@H](c2ccc(F)c(Cc3cc4ccccc4s3)c2)[C@H](O)[C@@H](O)[C@@H]1O	-2.86%
CC[C@H](C)C(=O)O[C@H]1C[C@@H](C)C=C2C=C[C@H](C)[C@H](CC[C@@H]3C[C@@H](O)CC(=O)O3)[C@H]21	-5.67%

A few entries again (block 5):
Structure (SMILES)	inhibition [%]
O=C1/C(=C/c2ccccc2)C(NC2CCCCC2)c2ccccc21 (centres unmarked)	36.8
CN1CCN(C(=O)c2ccc(-c3ccc4c(C=O)c(O)ccc4c3)s2)CC1	45.5
CC1=C(C(=O)O)N2C(=O)[C@@H](NC(=O)[C@H](N)C3=CCC=CC3)C2SC1 (some centres unmarked)	25.4
